Values quoted from earlier work, collected from citations in different studies.
Each line is one published result; not all experiments were run side by side. Numbers after ± are the reported error.
Sequence of UniProt Q8TBX8 (whole entry, looked up): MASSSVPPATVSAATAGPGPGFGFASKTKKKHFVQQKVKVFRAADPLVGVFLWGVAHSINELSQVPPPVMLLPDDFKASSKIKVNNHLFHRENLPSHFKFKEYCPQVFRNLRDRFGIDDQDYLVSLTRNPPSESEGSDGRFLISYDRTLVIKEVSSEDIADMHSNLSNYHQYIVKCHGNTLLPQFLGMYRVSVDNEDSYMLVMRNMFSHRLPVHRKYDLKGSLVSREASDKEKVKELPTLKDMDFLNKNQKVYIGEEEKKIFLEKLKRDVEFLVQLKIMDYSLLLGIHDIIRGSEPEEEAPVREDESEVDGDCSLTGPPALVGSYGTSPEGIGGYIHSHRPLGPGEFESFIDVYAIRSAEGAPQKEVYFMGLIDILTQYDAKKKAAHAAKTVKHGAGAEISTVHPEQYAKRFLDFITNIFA

For `Oc1ccc(-c2nc(-c3ccncc3)c(-c3ccc(F)cc3)[nH]2)cc1`, the inhibition was -2% (CSNK1G3; kinase activity, inhibitor; 0.5 µM).
`COc1ccccc1Oc1cccc(CN2CCC3(CC2)C(=O)NCN3CCc2ccccc2)c1` gave an EC50 of 6.2 nM (human CCR8 K195A mutant (TM5); IP accumulation, agonist).
For `CC(C)(O)c1cccc(-c2ccc3nc(-c4ccc(Cl)cc4)cn3c2)c1`, the EC50 was 218 ± 38 nM (NR4A2 (Nurr1); agonist, cell-based).
For `CC(C)Oc1ccc(-c2c[nH]cc2CN(C)CCN)cc1`, activity read “inactive” (PRMT9; enzyme activity, inhibitor; concentration not given).
`COCCOCc1ccc(-c2cc3onc(-c4ccccc4)c3c(=O)n2C)cc1` gave an EC50 of 3.9 ± 1.6 nM (NR4A2 (Nurr1); agonist, cell-based).
`COc1ccccc1Oc1cccc(CN2CCC(NC(=O)C(CCN3CCCC3)c3ccccc3)CC2)c1` (stereo not shown) has an EC50 of 21 nM (human CCR8 F290A mutant (TM7); IP accumulation, agonist).
`COc1cccc(-c2cc(=O)c3ccccc3o2)c1N` gave an inhibition of 2% (CSNK1G2; kinase activity, inhibitor; 0.5 µM).
The EC50 of `COc1ccccc1Oc1cccc(CN2CCC(O)(c3ccccc3C(=O)O)CC2)c1` is reported as 251 nM (human CCR8 F88A mutant (TM2); IP accumulation, agonist).
Under “inhibition time constant”, `O=C(Nc1cccc2c(=O)cc(-c3nnn[nH]3)oc12)c1ccc(OCCCCc2ccccc2)cc1` is recorded as roughly 1 min (VRAC (endogenous); swelling-activated current; HEK293).
The EC50 of `COc1ccccc1Oc1cccc(CN2CCC(NC(=O)C3CC(=O)Nc4ccccc43)CC2)c1` (stereo not shown) is reported as 133 nM (human CCR8 F84A mutant (TM2); IP accumulation, agonist).
The potency enhancement of `CCN(CC)CC.CCN(CC)CC.O=c1ccn([C@]23C[C@H]2[C@H](COP(=O)(O)OP(=O)(O)O)[C@@H](O)[C@H]3O)c(=O)[nH]1` is reported as 7 fold (P2Y6 receptor; phospholipase C activation; baseline: UDP).
The EC50 of `Oc1cc2c(cc1CN1CCN(c3cccc(Cl)c3)CC1)oc1ccccc12` is reported as 1300 ± 300 nM (NR4A3 (NOR-1); agonist, cellular).
The MIC of `CNC(C)C1CCC(N)C(OC2C(N)CC(N)C(OC3OCC(C)(O)C(NC)C3O)C2O)O1` (stereo not shown) is reported as greater than 8 µg/mL (Acinetobacter baumannii; clinical isolate RKI-No_12/16).
For `COc1ccc(-c2noc(CC(=O)O)c2-c2ccc(OC)cc2)cc1`, activity read “inactive” (NR4A2 (Nurr1); cellular; concentration not given).
With `N=C(NCCCCC(N)C(N)=O)NCCCSC[C@H]1O[C@@H](n2cnc3c(N)ncnc32)[C@H](O)[C@@H]1O` (stereo partly shown) the selectivity ratio was no less than 33 fold (PRMT1; enzyme activity, inhibitor; baseline: SET7/9 IC50 over PRMT1 IC50).
`Oc1ccc(/C=C/c2cc(O)cc(O)c2)cc1` has an activation of no more than 2.5 fold (SIRT5; deacetylase activity, activator, fluorogenic peptide substrate; concentration not given; baseline: untreated).
For `FC(F)(F)c1ccc(Nc2ncnc3cc(-c4ncccc4C(F)(F)F)cnc23)cc1`, the IC50 was 0.63 nM (TRPV1; calcium flux, antagonist; HEK293; together with: capsaicin).
For `c1cc(-c2cnn3cc(-c4ccc(OCCN5CCCCC5)cc4)cnc23)ccn1`, the inhibition was 14% (CSNK1G3; kinase activity, inhibitor; 0.5 µM).
The IC50 of `COc1ccc(C(CNC(=O)Nc2cccc3cnccc23)Cc2ccccc2)cc1` (stereo not shown) is reported as 14 nM (TRPV1; calcium flux, antagonist; HEK293; together with: capsaicin).
The inhibition of `COc1cc(Nc2c(C#N)cnc3cc(OCCCN4CCN(C)CC4)c(OC)cc23)c(Cl)cc1Cl` is reported as 2% (CSNK1G2; kinase activity, inhibitor; 0.5 µM).
For `CC(C)(O)c1cnc2ncc(-c3ccc(F)c(-c4c(F)cccc4C#N)c3)n2n1`, the receptor occupancy was 87% (rat GABAA benzodiazepine site; rat; oral, 1.0 mg/kg).
`Nc1nc(Nc2ccc(S(N)(=O)=O)cc2)n(C(=S)Nc2c(F)cccc2F)n1` has an inhibition of 79% (CSNK1G3; kinase activity, inhibitor; 0.5 µM).
`CC1(C)S[C@@H]2[C@H](NC(=O)[C@H](N)c3ccccc3)C(=O)N2[C@H]1C(=O)O` gave an MIC of greater than 16 µg/mL (Acinetobacter baumannii; clinical isolate RKI-No_70/16).
`CCNS(=O)(=O)c1ccc(OC)cc1C1(O)CCN(Cc2cccc(Oc3ccccc3OC)c2)CC1` gave an EC50 of 2 nM (human CCR8 S110A mutant (TM3); IP accumulation, agonist).
`COc1ccc2c(c1)CCC(NC(=O)Nc1cccc3cnccc13)C2Cc1ccc(Br)cc1` (stereo not shown) has an IC50 of 22 nM (TRPV1; calcium flux, antagonist; HEK293; together with: capsaicin).
`COc1ccc(N2C(=O)N(c3c(C)cccc3Cl)Cc3cnc(Nc4ccc(C5CCN(C)CC5)cc4OC)nc32)nc1` — result for “number of kinases inhibited”: greater than 60 kinases (468-kinase panel; 1 µM, inhibition above 90%).
For `FC(F)(F)c1ccc(Nc2ccnc3nc(-c4ncccc4C(F)(F)F)cnc23)cc1`, the IC50 was 0.23 nM (TRPV1; calcium flux, antagonist; HEK293; together with: capsaicin).
With `Nc1cc(C(F)(F)F)c(-c2nc(N3CCOCC3)nc(N3CCOCC3)n2)cn1` the remaining activity was 96% (Phosphatidylinositol 5-phosphate 4-kinase type-2 gamma (PIP4K2C, Homo sapiens, UniProt Q8TBX8); enzyme activity; 10 µM; baseline: untreated).
The remaining activity of `Cc1cc(NC(=O)c2cccc(NC(=O)/C=C/CN(C)C)c2)ccc1Nc1nccc(-c2cccnc2)n1` is reported as 18% (CK1; 1 µM; baseline: control).
`COc1cc(CCC(=O)CCCCc2ccccc2)ccc1O`: “maximal SERCA2a activity increase” 25 to 43% (SERCA2a; activator; concentration not given; baseline: control).
`COc1ccc(F)cc1C(=O)NCc1ccc(-c2nn([C@@H](C)C(F)(F)F)c(N)c2C(N)=O)cc1` gave a residence time of 210 min (BTK; binding, SPR; 4 °C).
For `O=C(O)c1cc(Cl)ccc1S(=O)(=O)NCCCCN1C(=O)c2cccc3cccc(c23)C1=O`, receptor activity read “no effect” (LPA1, LPA3, LPA4, LPA5 receptors; concentration not given).
`O=C(Nc1ccccc1)c1cc([N+](=O)[O-])ccc1Cl` gave a selectivity ratio of 600 fold (PPARβ/δ; baseline: PPARγ over PPARβ/δ).
`Cl.Nc1nccc(-c2c(-c3ccc(F)cc3)ncn2C2CCNCC2)n1` has an inhibition of -19% (CSNK1G2; kinase activity, inhibitor; 0.5 µM).
For `O=C(NCc1ccc(C(F)(F)F)nc1Oc1ccccc1)Nc1cccc2[nH]ncc12`, the IC50 was 9 nM (TRPV1; calcium flux, antagonist; HEK293; together with: capsaicin).
`COc1ccc(CNc2c(CO)cnc3c(C4CC4)cc(C#N)cc23)cc1Cl` gave a selectivity ratio of greater than 10 (PDE3; baseline: IC50 PDE3 over PDE5).
The Hill coefficient of `Nc1ncnc2c1ncn2[C@@H]1O[C@H](COP(=O)(O)OP(=O)(O)OP(=O)(O)O)[C@@H](O)[C@H]1O` is reported as 0.9 (P2Y purinoceptor; reference compound).
With `CCCCC/C=C\C[C@@H](O)/C=C/C=C/C=C\[C@@H](O)CCCC(=O)O` the kcat was 0.035 s⁻¹ (CYP4F3A (human); substrate; yeast microsomes).
`FC(F)(F)c1ccc(Nc2ncnc3nc(-c4ncccc4C(F)(F)F)ccc23)cc1` gave an IC50 of 0.83 nM (TRPV1; calcium flux, antagonist; HEK293; together with: capsaicin).
With `C[S+]([O-])c1ccc(-c2nc(-c3ccc(F)cc3)c(-c3ccncc3)[nH]2)cc1` (stereo not shown) the inhibition was 4% (CSNK1G2; kinase activity, inhibitor; 0.5 µM).
For `CC1(C)C(C=C(Cl)Cl)C1C(=O)OCc1cccc(Oc2ccccc2)c1` (stereo not shown), MDR1 inhibition read “inhibited” (MDR1, human; B16/F10 overexpressing human MDR1; micromolar).
`Nc1ccc(-c2ccc3cc(OCCF)ccc3n2)cc1` gave a Bmax of 0.002 mol/mol (synthetic tau aggregates; binding).
For `COc1ccc2c(c1)CCC(NC(=O)Nc1cccc3cnccc13)C2Cc1ccc(C#N)cc1` (stereo not shown), the IC50 was 21 nM (TRPV1; calcium flux, antagonist; HEK293; together with: capsaicin).
Under activity, `CCCCC/C=C\C[C@H](O)/C=C/C=C\C/C=C\CCCC(=O)O` is recorded as “no effect” (GPR39; concentration not given).
`CC(C)Nc1nc(Nc2ccc(C(F)(F)F)cc2)c2nc(Nc3c(Cl)cccc3Cl)sc2n1` gave an IC50 of 13 nM (TRPV1; calcium flux, antagonist; HEK293; together with: capsaicin).
With `CC(C)[C@H](CO)Nc1nc(Nc2cc(N)cc(Cl)c2)c2ncn(C(C)C)c2n1` the inhibition was 65% (CSNK1G2; kinase activity, inhibitor; 0.5 µM).
